Published values from different studies.
Each numbered part is a random draw from the data of one study; scales do not carry over between parts. Substitutions count along the parent as printed.

Series 1
Target: Interferon regulatory factor 5, full length, phosphomimetic (IRF5, Homo sapiens, UniProt Q13568-2, residues 1-514, K96S/S451D/S453D/S456D/S462D)
Technique: protein-binding microarray
Form: double-stranded DNA, one strand shown
Medium: in vitro
Tested at: 250 nM
Setting: 60-bp whole probe
Added: salmon DNA 0.4 mg/ml
Reference: random background probes
Direction: higher = stronger binding
Constant ends, left off below: GCCTAGCAC … GTCTTGATTCGCTTGACGCTGCTG
Oligonucleotide	log fluorescence
GAGGGACTGCTTATCCTGACGTGCTAG	-0.554 z-score
GACGGACTGGACTTTCAGGACGTGCTA	0.476 z-score
TATGTTCCCTATTTAAGACCGTGCTAG	0.413 z-score
GAGGATATCGGGACTGGAGACGTGCTA	0.189 z-score
TTAGATTTCAGTTGCGATTAGTGCTAG	3.28 z-score
TTTGGTCTCGGACTGGGTTAGTGCTAG	0.175 z-score
TCATTTTCATTTTCTGAAACTGTGCTA	4.83 z-score
CTTGCTTTCCAATTCTCTTTGTGCTAG	0.85 z-score
TTAGGTATCGGGACTGCGTTAGTGCTA	1.83 z-score
GACGGTATCCTACTGCTGTCGTGCTAG	-0.276 z-score
TTAGGTTTCGGGTCTGGGTTAGTGCTA	8.18 z-score
TCATCTCTGGGTCGGGCACTGTGCTAG	-0.312 z-score
CTCTTTCTCTGCTACCCTTTGGTGCTA	1.95 z-score

Series 2
Target: UBE2H UBC core domain (UniProt P62256)
Technique: yeast two-hybrid
Medium: yeast
Setting: mostly zero background
Reference: not given
Direction: higher = stronger interaction
B1: RNF115 RING domain (UniProt Q9Y4L5); chain TQEQVDMGLECPVCKEDYTVEEEVRQLPCNHFFHSSCIVPWLELHDTCPVCRKSLNGEDSTR
B2: UBE4B RING domain (UniProt O95155); chain KNARAEIDYSDAPDEFRDPLMDTLMTDPVRLPSGTIMDRSIILRHLLNSPTDPFNRQTLTESMLEPVPELKEQIQAWMREKQNSDH
B3: TRIM28 RING domain (UniProt Q13263); chain GAEALELLEHCGVCRERLRPEREPRLLPCLHSACSACLGPAAPAAANSSGDGGAAGDGTVVDCPVCKQQCFSKDIVE
B4: RNF10 RING domain (UniProt Q8N5U6); chain VRICSHEVPSCPICLYPPTAAKITRCGHIFCWACILHYLSLSEKTWSKCPICYSSVHKKDLKS
B5: MARCHF2 RING domain (UniProt Q9P0N8); chain RLLSTVIRALDTPSDGPFCRICHEGANGECLLSPCGCTGTLGAVHKSCLEKWLSSSNTSYCELCHTEFAVEKRPRPLTEWL
B6: TRIM47 RING domain (UniProt Q96LD4); chain MDGSGPFSCPICLEPLREPVTLPCGHNFCLACLGALWPHRGASGAGGPGGAARCPLCQEPFPDGLQLR
B7: MDM2 RING domain (UniProt Q00987); chain TQDKEESVESSLPLNAIEPCVICQGRPKNGCIVHGKTGHLMACFTCAKKLKKRNKPCPVCRQPIQMIVLTYFP
Sequence	lacZ reporter activity
B1 (RNF115 RING domain)	0
EIKDYKARLTCPCCNMRKKDAVLTKCFHVFCFECVKTRYDTRQRKCPKCNAAFGANDFHR (RNF20 RING domain (UniProt Q5VTR2))	0
B2 (UBE4B RING domain)	0
B3 (TRIM28 RING domain)	0
B4 (RNF10 RING domain)	0
B5 (MARCHF2 RING domain)	0
B6 (TRIM47 RING domain)	0
B7 (MDM2 RING domain)	0
MEEMEEELKCPVCGSFYREPIILPCSHNLCQACARNILVQTPESESPQSHRAAGSGVSDY (TRIM9 RING domain (UniProt Q9C026))	0

Series 3
Target: CCND2, cyclin fold, Cln2 fusion (human)
Technique: yeast growth competition, sequencing
Medium: yeast
Setting: weak parent motif
Reference: not given
Direction: higher = stronger binding
Starting sequence: ITGB3BP docking peptide (human); MPVKRSLKLDGLL; partner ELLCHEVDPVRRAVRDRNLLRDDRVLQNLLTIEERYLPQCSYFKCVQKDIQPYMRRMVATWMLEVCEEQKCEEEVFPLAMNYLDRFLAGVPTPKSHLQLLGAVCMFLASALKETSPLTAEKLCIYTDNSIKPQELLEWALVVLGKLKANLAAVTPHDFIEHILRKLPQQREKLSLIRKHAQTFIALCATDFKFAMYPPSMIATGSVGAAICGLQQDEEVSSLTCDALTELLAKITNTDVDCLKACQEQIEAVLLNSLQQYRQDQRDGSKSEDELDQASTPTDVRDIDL
Variant	normalised enrichment score
MPAKRSLKLDGLL [V3A]	0.554
MPVKRSLKLDGAL [L12A]	0.117
MPVKASLKLDGLL [R5A]	-0.167
MPVKKSLKLDGLL [R5K]	-0.256
APVKRSLKLDGLL [M1A]	-0.245
MPVKRSLALDGLL [K8A]	0.272
MPVARSLKLDGLL [K4A]	0.258
MPVKASAKLDGLL [R5A L7A]	0.0275
MPVKRSAKLDGLL [L7A]	0.505
MPVKRSLKFDGLL [L9F]	-0.192

Series 4
Target: JUND, bZIP domain (human)
Technique: DHFR protein complementation
Medium: yeast
Setting: single substitutions, most at no-binding floor
Reference: wild-type JUN-FOS pair
Direction: higher = stronger binding
Starting sequence: JUN, bZIP domain (human); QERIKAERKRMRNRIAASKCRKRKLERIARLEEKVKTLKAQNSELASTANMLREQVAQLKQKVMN; partner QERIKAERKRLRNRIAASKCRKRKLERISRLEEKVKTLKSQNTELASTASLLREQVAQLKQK
Variant	binding fitness [natural log]
T48M	-0.736
R30V	-0.516
A49I	-0.121
A46R	-0.585
Q55E	-0.531
A46F	-1.07
E44Y	-0.992
E32I	-1.2
M51K	-0.541
A29F	-0.999
A57W	-1.17
A57H	-0.861
R30T	-0.542
A29H	-0.722
T37W	-0.67
T37S	-0.638
A57K	-0.573
K36T	-1.06
E32T	-1
S43H	-0.706
A46C	-1
S43C	-0.726

Series 5
Target: Sal-like protein 4, full length isoform A (SALL4, Homo sapiens, UniProt Q9UJQ4, residues 1-1053)
Technique: universal PBM
Form: double-stranded DNA, one strand shown
Medium: in vitro
Tested at: 600 nM
Setting: 8-mer, flanks averaged, mean of replicates
Direction: higher = stronger binding
Oligonucleotide	E-score
GTGAGCTA	0.0816
AAGTCTTG	-0.0427
GGCCTCCC	-0.333
GGGTCTTA	-0.144
AATGGACT	0.0315
ATCACATG	0.137
ACCCCCAA	-0.1
ATCCTCCA	-0.00185
CACAAGCG	-0.15
ACACTTTC	0.0288
ATGCTAGG	0.0761
ATTCTTTC	0.157
GAGGAAAC	-0.102
CTGTCTCA	0.0964
CTACCCCA	-0.0717
ACTTACGC	0.107
AGAACCCT	-0.242
GACCGTCC	-0.327
CAGGACCG	-0.228
AATTACAA	0.315
CTACAAGA	0.0552
ACTGTCCC	-0.14
CATCAATC	0.195
ACGGCGAC	-0.309
AATTCGAG	0.0781

Series 6
Target: RING finger protein unkempt homolog, zinc fingers 1-6, SBP tag (UNK, Homo sapiens, UniProt Q9C0B0, residues 30-357)
Technique: RNA Bind-n-Seq
Form: RNA
Medium: in vitro
Tested at: 100 nM
Setting: RNA with constant flanks, vertebrate orthologous sites, ends assumed
Reference: input RNA pool
Direction: higher = stronger binding
Constant ends, left off below: GGGAGUUCUACAGUCCGACGAUC … CAACAGAGGAUUGAGCAUCA
Oligonucleotide	bound/input enrichment [ratio]
CAUAAAAUACUGGAUGCAGUGUGUAAAUGAUCCAAGGCAGUGACGUCAGCGUUUCAUGUAGUGUCAAUUUUAAAUCAUCUGCUCUUAUUUAAAUUUCUAUAUUGGGUUGUUUCCUCUGUG	0.515
CCUCCCCCUGACCCUAAAGUAGAUCUUUUUAAAAUUAUGUCACCACCACUUGUAAAAAUUUAGCAAUACCAGAAGAAAACGCUAAUGAAGUAAGAAAUUUUGCUCAUUGUUUUGCAAACC	3.96
GGGACGCUUUGAUAUUAAAUUUGACAUAAAAAGCAGCUGAUUGUAAGCACAACUCUCUCCUAGCCAUUUAAAAAGGUAAAAAACAAAAAAGAAAAUCUACUAGUCUUGAACAAACUGUCA	1.45
CAGUAGAAUUACACUAAUACUGAAGUUAAAAGAGUAUCAAAGGUGAUGAUAAAGUGUGUGUUGGUAGUUACUAAAAGAACCUUAGCUGUUAUUGCCUUGUAUUUCUAUCCCUUGUUUCAG	0.447
UUGAACCUCCUGAACUUGCUUUCAAAUUGUGGCUGUUUCAGAAACUGGUUUUAUUUUCUUUAGGAUUUGCCCUGUUUCUUAUCUUCUCCUCCACGUUUCCAACGUUUGACUCAUGGAUUU	0.413
UCAGUCCCCUGGGCUGGGACAGAUUUUUUUUAACGUCUUGAAACUUAAACUUUGUGCUUGUAGGAGACUGUAACCUUUUUGUCUUUUUUUUUUUUUAAACAAACAACCUCCACCUCCAGU	0.715
UGGGUUACUCUUAUUAUUAUCAAGUAGCUGGAAUUGUGAAGGUCGGAGUAGUUAGAUCUUUAGCUUUGAUUCCUUAUUUUUUUUUUGUAUUACUAUCCAUGUGUAUAAAUUAUUGAUCAU	0.98
GGCUGCUUGAGCUAUAGGAAAAUGAGCUUUGCAUUUUAUACGUAUAUAUGUAUAUUUAAAUAGAAUACUUUUAUAUGAUGGGUGCUUUGCGUGUGAAUGCAGCAGGCUCUCAGAGGUACU	0.389
CAUGUCCUGGUUACUGUGAUAUUUAAAAUAUCCACAGUUCUCACUUGUUCCAAAUGAGCCUAAUAAUUGCCUACAAAUAUCUUUCUCUUACCUGUUAUUUAUCAAUUUUUCCCAGUAUUU	1.26
AUUGAACAAAAAACGUUUCCACUGGGUUUUGCCUAUAAGAAAAAAAUGUACCCGAGCACAUAGAGCUUUUUAAUAGCACUAACCAAUGCCUUUUUAGAUGUAUUUUUGAUGUAUAUAUCU	0.693
AUUUUUUAAAGUUUUUUUAAUUUAAAUUUUCCUUUUGGGGGUACAGUUUGCUCUACCAAAUAGUGAUCGUAACAAAUUGAUCUGUUUUGGAUGUUGCUAUAGUGACAUGCAGUUAUAUAU	0.611

Some of these lines once more (series 2):
Sequence	lacZ reporter activity
B1 (RNF115 RING domain)	0
EIKDYKARLTCPCCNMRKKDAVLTKCFHVFCFECVKTRYDTRQRKCPKCNAAFGANDFHR (RNF20 RING domain (UniProt Q5VTR2))	0
B2 (UBE4B RING domain)	0
B3 (TRIM28 RING domain)	0
B4 (RNF10 RING domain)	0
B5 (MARCHF2 RING domain)	0
B6 (TRIM47 RING domain)	0
B7 (MDM2 RING domain)	0
MEEMEEELKCPVCGSFYREPIILPCSHNLCQACARNILVQTPESESPQSHRAAGSGVSDY (TRIM9 RING domain (UniProt Q9C026))	0
